Assay results collected from several papers.
Compare with care: the assays were run in different laboratories. ± marks the error that the study gave.

`O=C1C(O)=C(Nc2cccc(C(F)(F)F)c2)C(=O)c2ccccc21` gave a CC50 of 178 µM (HepG2; cell growth or viability, MTT; 72 h).
For `COc1ccc(Nc2c3c(nc4ccc(Cl)cc24)CCCC3)nc1`, the inhibition was -3.87 ± 0.18% (HepG2; MTT; 50 µM, 24 h, 10% FBS).
`CC(=O)N[C@@H](CC(=O)O)C(=O)N[C@@H](CCC(=O)O)C(=O)N[C@H](C(=O)N[C@@H](CC(=O)O)C(=O)NCC(=O)NCC(=O)NCC(=O)NCCNC(=O)OCC1c2ccccc2-c2ccccc21)C(C)C` gave an unmetabolized fraction of 51.3% (HepG2; 200 µM, 2 h, 37 °C).
`CC[C@H](C)[C@H](NC(=O)[C@H](C)NC(=O)[C@@H](NC(=O)[C@H](CC(=O)O)NC(=O)[C@H](CCCCN)NC(=O)[C@H](CO)NC(=O)[C@@H](NC(=O)[C@H](CC(N)=O)NC(=O)[C@H](C)NC(=O)[C@@H](NC(=O)[C@H](CCC(=O)O)NC(=O)[C@H](CCCCN)NC(=O)[C@@H](NC(=O)[C@@H](NC(=O)[C@H](Cc1c[nH]cn1)NC(=O)[C@H](CCCCN)NC(=O)[C@@H](NC(=O)[C@H](CCCCN)NC(=O)[C@H](CCCCN)NC(=O)[C@@H](NC(=O)[C@H](CC(C)C)NC(=O)[C@H](CCCCN)NC(=O)[C@H](CC(N)=O)NC(=O)[C@H](Cc1ccccc1)NC(=O)[C@H](CCCNC(=N)N)NC(=O)[C@H](CCCCN)NC(=O)[C@H](CCCNC(=N)N)NC(=O)[C@H](Cc1ccccc1)NC(=O)CN)C(C)C)C(C)C)[C@@H](C)O)[C@@H](C)CC)[C@@H](C)O)C(C)C)C(C)C)C(=O)N[C@H](C(=O)N[C@@H](C)C(=O)NCC(=O)N[C@@H](CO)C(=O)NCC(=O)N[C@H](C(=O)N[C@@H](C)C(=O)N[C@H](C(=O)NCC(=O)N[C@@H](C)C(=O)N[C@@H](C)C(=O)N[C@@H](CCSC)C(N)=O)C(C)C)C(C)C)C(C)C` has a no-observed-effect concentration of 433 mg/L (HepG2; cytotoxicity, item: intracellular ATP).
With `COc1ccnc(Nc2c3c(nc4ccc(Cl)cc24)CCCC3)c1` the inhibition was -7.85 ± 0.36% (HepG2; MTT; 50 µM, 24 h, 10% FBS).
The CC50 of `CC(C)=CCNCCOC1C2CC3CC(C2)CC1C3` (stereo not drawn) is reported as 4.8 µg/mL (HepG2; cell growth or viability).
`N=C(N)NCCC[C@H](NC(=O)[C@@H]1CCCN1C(=O)[C@H](CC(N)=O)NC(=O)[C@H](Cc1ccccc1)NC(=O)[C@H](Cc1c[nH]cn1)NC(=O)[C@H](Cc1ccccc1)NC(=O)[C@H](Cc1ccccc1)NC(=O)Cc1ccc2ccccc2c1)C(=O)O` gave a remaining peptide of 33% (HepG2; cell lysate; 200 µM, 1 h).
`CC[C@H](C)[C@H](NC(=O)[C@H](CCC(N)=O)NC(=O)[C@@H](NC(=O)[C@H](CO)NC(=O)CNC(=O)CNC(=O)CNC(=O)[C@@H]1CCCN1C(=O)[C@@H](NC(=O)[C@H](Cc1c[nH]cn1)NC(=O)[C@H](CCCCN)NC(=O)[C@H](CCCCN)NC(=O)CNC(=O)CNC(=O)CNC(=O)[C@@H](N)CSC1CC(=O)N(c2ccc3c(c2)C(=O)OC32c3ccc(N(C)C)cc3Oc3cc(N(C)C)ccc32)C1=O)C(C)C)C(C)C)C(=O)N[C@H](C(=O)N[C@@H](Cc1ccc(O)cc1)C(=O)N[C@@H](CCCCN)C(=O)N1CCC[C@H]1C(=O)N[C@H](C(=O)N[C@@H](CC(=O)O)C(=O)N[C@@H](CC(C)C)C(=O)O)C(C)C)C(C)C` (stereo partly drawn): cytotoxicity “not toxic” (HepG2; 10 µM, 72 h).
The inhibition of `O=C(c1ccc(Nc2c3c(nc4ccccc24)CCCC3)cc1)C1CC1` is reported as 35 ± 1.54% (HepG2; MTT; 50 µM, 24 h, 10% FBS).
For `CC(C)(CO)NCC1=C(O)C(=O)c2ccccc2C1=O`, “median lethal concentration” read 188 ± 34.7 µM (HepG2; MTT; 10% FCS; 24 h).
With `COc1ccc(Nc2c3c(nc4ccccc24)CCC(C)C3)nc1` (stereo not drawn) the inhibition was -10.9 ± 0.34% (HepG2; MTT; 50 µM, 24 h, 10% FBS).
`CCNCC1=C(O)C(=O)c2ccccc2C1=O` — result for “median lethal concentration”: ≥ 4320 µM (HepG2; MTT; 10% FCS; 24 h).
`Cc1cccc(Nc2c3c(nc4ccccc24)CCC(C)C3)n1` (stereo not drawn) gave an inhibition of -29.2 ± 0.33% (HepG2; MTT; 50 µM, 24 h, 10% FBS).
`O=C1C(O)=C(CN2CCCC2)C(=O)c2ccccc21` — result for “median lethal concentration”: ≥ 3890 µM (HepG2; MTT; 10% FCS; 24 h).
`Cc1cc(O)c2c(C(=O)[O-])[n+]3n(c2c1)CCCC3` gave a viability of 78.4% (HepG2; cell growth or viability, CCK-8; 30 µM, 24 h).
`O=C1C(O)=C(Nc2ccc(Cl)cc2)C(=O)c2ccccc21` has a CC50 of 320 µM (HepG2; cell growth or viability, MTT; 72 h).
`CC(C)=CCC/C(C)=C/CC/C(C)=C/CNCCOC1C2CC3CC(C2)CC1C3` (stereo not drawn) gave a CC50 of 9.4 µg/mL (HepG2; cell growth or viability).
For `O=C(Cc1ccc2ccccc2c1)N[C@@H](Cc1c[nH]c2ccccc12)C(=O)N[C@@H](Cc1c[nH]c2ccccc12)C(=O)N[C@@H](Cc1ccc(OP(=O)(O)O)cc1)C(=O)O`, the viability was ~60% (HepG2; MTT; 400 µM, 3 days).
`CCCN(CCC)CC1=C(O)C(=O)c2ccccc2C1=O`: “median lethal concentration” 2080 ± 316 µM (HepG2; MTT; 10% FCS; 24 h).
The inhibition of `COc1ccc(Nc2c3c(nc4ccccc24)CCCC3)cc1` is reported as -31.5 ± 0.45% (HepG2; MTT; 50 µM, 24 h, 10% FBS).
For `COc1ccc2[nH]cc(CCNS(=O)(=O)CCc3cn(-c4cnc5ccccc5c4)nn3)c2c1`, the viability was 71% (HepG2; MTT; 50 µM).
`Cc1ccnc(Nc2c3c(nc4ccc(Cl)cc24)CCCC3)c1` gave an inhibition of -22.9 ± 0.74% (HepG2; MTT; 50 µM, 24 h, 10% FBS).
`O=C1C(O)=C(Nc2ccccc2Cl)C(=O)c2ccccc21` gave a CC50 of 180 µM (HepG2; cell growth or viability, MTT; 72 h).
For `CC(=O)N[C@@H](CC(=O)O)C(=O)N[C@@H](CCC(=O)O)C(=O)N[C@@H](CC(=O)O)C(=O)N[C@H](C(=O)NCC(=O)NCC(=O)NCC(=O)NCCNC(=O)OCC1c2ccccc2-c2ccccc21)C(C)C`, the cellular uptake was 0.27 fmol/cell (HepG2; 200 µM, 2 h, 37 °C, 10% FBS).
`O=C1C(O)=C(Nc2ccc(F)cc2)C(=O)c2ccccc21` has a CC50 of 140 µM (HepG2; cell growth or viability, MTT; 72 h).
The tracer uptake of `COc1cc(C(=O)NCCOCCOCCOCCNC(=O)c2ccc([18F])nc2)ccc1NC(=O)C1NC(CC(C)(C)C)C(C#N)(c2ccc(Cl)cc2F)C1c1cccc(Cl)c1F` (stereo not drawn) is reported as 2.14 %ID/g (HepG2 tumour model; host not given, liver; 2 h, tumour-bearing).
With `FC(F)(F)c1ccc(Nc2c3c(nc4ccccc24)CCCC3)cc1` the inhibition was -0.52 ± 0.16% (HepG2; MTT; 50 µM, 24 h, 10% FBS).

A few entries again:
`O=C1C(O)=C(Nc2cccc(C(F)(F)F)c2)C(=O)c2ccccc21` gave a CC50 of 178 µM (HepG2; cell growth or viability, MTT; 72 h).
For `COc1ccc(Nc2c3c(nc4ccc(Cl)cc24)CCCC3)nc1`, the inhibition was -3.87 ± 0.18% (HepG2; MTT; 50 µM, 24 h, 10% FBS).
